Assay results gathered from unrelated publications.
A part holds a random share of what one study measured.
Sequence of UniProt O60331 (whole entry, looked up): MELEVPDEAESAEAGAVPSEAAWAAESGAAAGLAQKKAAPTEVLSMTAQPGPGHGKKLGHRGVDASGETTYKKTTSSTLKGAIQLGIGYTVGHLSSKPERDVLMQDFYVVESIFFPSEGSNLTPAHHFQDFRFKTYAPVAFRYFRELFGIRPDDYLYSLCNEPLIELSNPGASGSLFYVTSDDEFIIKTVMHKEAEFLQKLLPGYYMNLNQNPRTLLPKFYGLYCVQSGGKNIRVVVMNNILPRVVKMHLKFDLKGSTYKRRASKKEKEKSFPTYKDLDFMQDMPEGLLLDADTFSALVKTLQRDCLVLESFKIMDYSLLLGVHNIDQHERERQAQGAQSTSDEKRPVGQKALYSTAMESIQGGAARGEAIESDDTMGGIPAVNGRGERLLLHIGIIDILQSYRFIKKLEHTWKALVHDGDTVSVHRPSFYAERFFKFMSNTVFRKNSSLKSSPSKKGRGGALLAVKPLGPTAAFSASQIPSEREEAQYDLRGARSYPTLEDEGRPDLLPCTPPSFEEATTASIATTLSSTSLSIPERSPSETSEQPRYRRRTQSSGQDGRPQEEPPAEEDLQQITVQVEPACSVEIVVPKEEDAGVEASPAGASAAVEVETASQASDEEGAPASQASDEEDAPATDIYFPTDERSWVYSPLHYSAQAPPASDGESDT
Sequence of UniProt Q96Q40 (whole entry, looked up): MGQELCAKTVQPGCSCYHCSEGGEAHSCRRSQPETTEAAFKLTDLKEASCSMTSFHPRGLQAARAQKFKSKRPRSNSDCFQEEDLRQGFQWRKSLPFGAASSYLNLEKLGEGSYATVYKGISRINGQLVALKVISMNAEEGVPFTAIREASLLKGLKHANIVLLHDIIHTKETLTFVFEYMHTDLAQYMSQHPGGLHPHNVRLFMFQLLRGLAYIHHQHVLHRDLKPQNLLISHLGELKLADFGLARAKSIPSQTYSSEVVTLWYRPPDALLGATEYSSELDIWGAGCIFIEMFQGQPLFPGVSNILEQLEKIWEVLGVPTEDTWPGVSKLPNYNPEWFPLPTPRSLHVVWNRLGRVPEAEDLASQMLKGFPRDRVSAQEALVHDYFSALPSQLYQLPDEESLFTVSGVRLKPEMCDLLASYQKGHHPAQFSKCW
Sequence of UniProt P78356 (whole entry, looked up): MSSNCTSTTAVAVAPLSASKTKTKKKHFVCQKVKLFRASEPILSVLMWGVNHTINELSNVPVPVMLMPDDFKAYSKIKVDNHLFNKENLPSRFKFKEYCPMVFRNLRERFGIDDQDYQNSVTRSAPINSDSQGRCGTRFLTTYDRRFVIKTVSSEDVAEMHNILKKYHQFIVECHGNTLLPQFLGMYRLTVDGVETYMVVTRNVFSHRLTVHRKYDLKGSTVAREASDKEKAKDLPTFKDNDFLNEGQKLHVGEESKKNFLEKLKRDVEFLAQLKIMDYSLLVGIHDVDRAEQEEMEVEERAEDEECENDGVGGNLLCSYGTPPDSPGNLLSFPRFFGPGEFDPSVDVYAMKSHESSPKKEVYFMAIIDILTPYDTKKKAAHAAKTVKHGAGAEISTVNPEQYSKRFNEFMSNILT
Sequence of UniProt Q07912 (whole entry, looked up): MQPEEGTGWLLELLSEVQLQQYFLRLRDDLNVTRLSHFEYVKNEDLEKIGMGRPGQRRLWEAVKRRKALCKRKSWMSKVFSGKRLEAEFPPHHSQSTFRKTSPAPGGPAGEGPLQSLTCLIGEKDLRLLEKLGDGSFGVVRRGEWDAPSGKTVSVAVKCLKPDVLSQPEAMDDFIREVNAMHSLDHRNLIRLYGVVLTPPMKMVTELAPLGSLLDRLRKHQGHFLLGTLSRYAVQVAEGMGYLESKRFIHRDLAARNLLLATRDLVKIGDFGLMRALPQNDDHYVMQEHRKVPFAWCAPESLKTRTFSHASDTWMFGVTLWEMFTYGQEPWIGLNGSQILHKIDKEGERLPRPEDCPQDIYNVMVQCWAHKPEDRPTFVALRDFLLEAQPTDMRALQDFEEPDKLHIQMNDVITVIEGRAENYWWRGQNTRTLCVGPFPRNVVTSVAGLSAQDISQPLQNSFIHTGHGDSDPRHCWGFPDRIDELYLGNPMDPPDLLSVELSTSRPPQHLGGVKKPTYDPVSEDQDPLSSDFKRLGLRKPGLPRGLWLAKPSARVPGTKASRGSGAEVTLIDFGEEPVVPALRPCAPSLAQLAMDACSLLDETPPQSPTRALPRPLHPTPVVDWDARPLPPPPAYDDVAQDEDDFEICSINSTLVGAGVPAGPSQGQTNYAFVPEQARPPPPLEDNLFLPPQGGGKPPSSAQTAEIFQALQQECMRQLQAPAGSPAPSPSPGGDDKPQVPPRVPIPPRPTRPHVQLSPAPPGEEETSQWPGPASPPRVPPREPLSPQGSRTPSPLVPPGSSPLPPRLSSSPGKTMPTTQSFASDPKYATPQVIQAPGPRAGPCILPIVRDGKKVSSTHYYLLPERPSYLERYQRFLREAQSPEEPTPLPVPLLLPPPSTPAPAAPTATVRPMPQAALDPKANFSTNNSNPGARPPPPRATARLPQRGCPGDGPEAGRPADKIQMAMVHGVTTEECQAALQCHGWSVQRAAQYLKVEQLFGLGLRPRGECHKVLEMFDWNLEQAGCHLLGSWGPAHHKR
Sequence of UniProt P19525 (whole entry, looked up): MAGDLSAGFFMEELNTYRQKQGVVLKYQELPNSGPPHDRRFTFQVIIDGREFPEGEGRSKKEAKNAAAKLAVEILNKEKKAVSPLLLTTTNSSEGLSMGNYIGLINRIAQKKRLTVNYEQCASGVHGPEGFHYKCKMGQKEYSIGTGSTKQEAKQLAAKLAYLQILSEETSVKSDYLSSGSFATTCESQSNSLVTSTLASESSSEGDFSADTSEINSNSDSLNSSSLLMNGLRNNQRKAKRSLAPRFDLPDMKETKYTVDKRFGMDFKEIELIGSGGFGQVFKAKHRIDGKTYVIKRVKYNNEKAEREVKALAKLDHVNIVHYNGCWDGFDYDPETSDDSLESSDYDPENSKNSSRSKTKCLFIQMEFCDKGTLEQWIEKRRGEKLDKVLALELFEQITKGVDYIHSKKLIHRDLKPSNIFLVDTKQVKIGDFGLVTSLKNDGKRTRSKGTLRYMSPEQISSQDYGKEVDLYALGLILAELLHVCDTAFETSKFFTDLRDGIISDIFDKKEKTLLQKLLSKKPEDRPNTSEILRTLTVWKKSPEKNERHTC
Sequence of UniProt Q96GD4 (whole entry, looked up): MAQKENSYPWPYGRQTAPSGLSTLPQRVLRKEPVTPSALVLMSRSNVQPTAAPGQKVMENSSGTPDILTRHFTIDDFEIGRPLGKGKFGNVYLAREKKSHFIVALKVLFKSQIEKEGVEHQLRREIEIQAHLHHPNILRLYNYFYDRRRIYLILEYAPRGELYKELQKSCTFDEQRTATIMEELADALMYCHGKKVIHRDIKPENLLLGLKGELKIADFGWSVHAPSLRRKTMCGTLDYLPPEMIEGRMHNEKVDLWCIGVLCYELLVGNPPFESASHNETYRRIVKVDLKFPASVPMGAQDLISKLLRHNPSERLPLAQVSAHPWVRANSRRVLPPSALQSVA
Sequence of UniProt Q8TDR2 (whole entry, looked up): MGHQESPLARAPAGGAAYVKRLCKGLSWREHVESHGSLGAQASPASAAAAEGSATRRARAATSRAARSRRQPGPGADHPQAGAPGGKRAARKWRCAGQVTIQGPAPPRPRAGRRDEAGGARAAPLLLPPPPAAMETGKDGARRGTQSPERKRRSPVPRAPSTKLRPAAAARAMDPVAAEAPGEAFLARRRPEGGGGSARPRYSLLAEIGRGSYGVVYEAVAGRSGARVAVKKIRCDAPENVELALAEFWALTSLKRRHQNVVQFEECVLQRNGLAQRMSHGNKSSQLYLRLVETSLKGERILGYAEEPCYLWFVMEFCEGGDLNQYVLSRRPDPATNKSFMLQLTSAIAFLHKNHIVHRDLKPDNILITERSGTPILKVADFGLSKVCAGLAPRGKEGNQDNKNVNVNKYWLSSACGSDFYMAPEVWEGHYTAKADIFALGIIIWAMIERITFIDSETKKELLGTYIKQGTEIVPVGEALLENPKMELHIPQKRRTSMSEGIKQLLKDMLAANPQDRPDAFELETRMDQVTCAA
Sequence of UniProt P45985 (whole entry, looked up): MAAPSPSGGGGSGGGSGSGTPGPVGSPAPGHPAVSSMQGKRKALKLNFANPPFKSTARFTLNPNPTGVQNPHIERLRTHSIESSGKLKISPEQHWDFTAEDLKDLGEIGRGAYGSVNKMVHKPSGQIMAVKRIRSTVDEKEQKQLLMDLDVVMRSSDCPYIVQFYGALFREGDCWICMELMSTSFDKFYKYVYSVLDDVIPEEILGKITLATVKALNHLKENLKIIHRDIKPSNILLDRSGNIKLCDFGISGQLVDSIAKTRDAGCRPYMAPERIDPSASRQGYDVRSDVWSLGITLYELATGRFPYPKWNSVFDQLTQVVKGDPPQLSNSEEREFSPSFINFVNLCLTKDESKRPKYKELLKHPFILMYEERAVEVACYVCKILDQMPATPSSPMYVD
Sequence of UniProt Q13043 (whole entry, looked up): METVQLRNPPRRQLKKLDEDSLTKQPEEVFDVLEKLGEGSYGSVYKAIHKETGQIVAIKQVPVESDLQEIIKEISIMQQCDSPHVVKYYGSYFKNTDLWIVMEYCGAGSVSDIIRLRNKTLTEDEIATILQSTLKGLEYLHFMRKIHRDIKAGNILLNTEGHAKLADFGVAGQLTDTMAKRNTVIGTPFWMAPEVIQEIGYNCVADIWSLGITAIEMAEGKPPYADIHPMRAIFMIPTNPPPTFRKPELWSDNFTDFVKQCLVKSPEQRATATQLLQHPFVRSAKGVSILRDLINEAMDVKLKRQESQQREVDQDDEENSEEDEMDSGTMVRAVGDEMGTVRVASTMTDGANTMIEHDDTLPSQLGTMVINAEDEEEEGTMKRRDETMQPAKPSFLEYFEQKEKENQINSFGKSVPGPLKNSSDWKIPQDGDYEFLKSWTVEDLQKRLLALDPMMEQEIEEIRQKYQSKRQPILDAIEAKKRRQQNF

Set 1 — technique: LC-MS/MS; sample: plasma
Structure (SMILES): COc1ccc(-c2c(Nc3ccccn3)[nH]c3c(C4=CCCCC4)c(-c4ccccc4)nn3c2=O)cc1
refers to	species	route	dose	time	setting	plasma concentration [ng/mL]
S-adenosylmethionine	human cancer patients		50 mg QD	2 h	mean, cycle 1 day 50	23.5
methionine	human cancer patients	QD	dose not given	2 h	median, cycle 1 day 50	89200
methionine	human cancer patients		200 mg BID	0 h	median, cycle 1 day 200	85400
methionine	human cancer patients	QD	dose not given	4 h	median, cycle 1 day 50	69200
methionine	human cancer patients	QD	dose not given	6 h	mean, cycle 1 day 50	70800
	human	oral	200 mg twice daily	1 h	geometric mean	12500
methionine	human cancer patients		200 mg BID	2 h	mean, cycle 1 day 200	74500
S-adenosylmethionine	human cancer patients		50 mg QD	8 h	mean, cycle 1 day 50	25.7
methionine	human cancer patients	QD	dose not given	2 h	geometric mean, cycle 1 day 50	64400
S-adenosylmethionine	human cancer patients		200 mg BID	2 h	median, cycle 1 day 200	11.8
S-adenosylmethionine	human cancer patients		50 mg QD	6 h	mean, cycle 1 day 50	22.3
methionine	human cancer patients	QD	dose not given	0 h	mean, cycle 1 day 50	70400
methionine	human cancer patients	QD	dose not given	4 h	mean, cycle 1 day 50	64100

Set 2 — cell line: Huh-7; tested at: 10 µM; time: 24 h
Compound	viability [%]
CN(C)CCC(c1ccc(Br)cc1)c1ccccn1 (stereo not shown)	99.3
C[C@]12C=CC(=O)C=C1CC[C@@H]1[C@@H]2[C@@H](O)C[C@@]2(C)[C@H]1CC[C@]2(O)C(=O)COP(=O)(O)O	93.9
CN1CCN(C(c2ccccc2)c2ccccc2)CC1	101
O=C(c1ccc(F)cc1)C1CCN(CCn2c(=O)[nH]c3ccccc3c2=O)CC1	71.6
COC1=CC(=O)C[C@@H](C)[C@]12Oc1c(Cl)c(OC)cc(OC)c1C2=O	93.3
CC1=C(C/C=C(\C)CCC[C@H](C)CCC[C@H](C)CCCC(C)C)C(=O)c2ccccc2C1=O	99.9
Oc1c(Cl)cc(Cl)c2cccnc12	94.3
COc1cc(C(=O)N2CCOCC2)cc(OC)c1OC	103
O=C(O)c1cc(/N=N/c2ccc(S(=O)(=O)Nc3ccccn3)cc2)ccc1O	105
CS(=O)(=O)c1ccc([C@@H](O)[C@@H](CF)NC(=O)C(Cl)Cl)cc1	97.5
Clc1cccc(Cl)c1N=C1NCCN1	102
CC[C@@H](Cc1c(I)cc(I)c(N)c1I)C(=O)O	101
O=P(O)(O)C(O)(Cc1cccnc1)P(=O)(O)O	98.3
NCCNCCNCCN	98.1

Set 3 — effect on: cell-free assay; technique: competition with immobilised ligand; tested at: 0.1 µM
Compound: COCCOc1nc(-c2ccc(Cl)nc2)nc2c1CN(C(=O)c1ncn3ccccc13)CC2
target	remaining binding [%]
CDK15 (Homo sapiens, UniProt Q96Q40)	100
Aurora kinase B (AURKB, Homo sapiens, UniProt Q96GD4)	97
AXL (Homo sapiens, UniProt P30530)	90
STK4 (Homo sapiens, UniProt Q13043)	100
MAP2K4 (Homo sapiens, UniProt P45985)	100
PIP5K1C (Homo sapiens, UniProt O60331)	67
EIF2AK2 (Homo sapiens, UniProt P19525)	100
STK35 (Homo sapiens, UniProt Q8TDR2)	100
PIP4K2B (Homo sapiens, UniProt P78356)	59
TNK2 (Homo sapiens, UniProt Q07912)	100

Set 4 — effect on: enzyme activity; mode: inhibitor; tested at: 0.5 µM; baseline: control
Target: STE20/SPS1-related proline-alanine-rich protein kinase (STK39, Homo sapiens, UniProt Q9UEW8)
SMILES	remaining activity [%]
COc1cc2ncnc(Nc3ccc(Oc4ccccc4)cc3)c2cc1OC	102
COc1ccc(CNC(=O)Nc2ncc([N+](=O)[O-])s2)cc1	96.4
O=C(Nc1cccc(Nc2cc(Nc3cccc(C(F)(F)F)c3)ncn2)c1)C1CC1	94.1
O=C(O)c1ccc2c3c1cccc3c(=O)n1c3ccccc3nc21	102
COc1ccc(OC)c2c(=S)c3ccccc3[nH]c12	94.4
COc1cc2nccc(Oc3ccc(NC(=S)NC(=O)c4ccccc4C)cc3)c2cc1OC	91.5
C#Cc1cccc(Nc2ncnc3cc(OCCOC)c(OCCOC)cc23)c1	97
Nc1ncnc2n[nH]c(Nc3ccc(F)cc3)c12	88.5
Cc1nc(-c2ccccc2)c(-c2ccncc2)o1	97.1
N#CC(C#N)=C(N)/C(C#N)=C/c1ccc(O)cc1	90.3
O=C(CCCc1ccc(-c2ccccc2F)cc1)Nc1ccc(O)cc1	95.4
CN(C)c1ccc(C=C2C(=O)Nc3ccccc32)cc1	96.6
Cn1sc(=O)n(Cc2ccccc2)c1=O	97.9
Oc1ccc(-c2nc(-c3ccncc3)c(-c3ccc(F)cc3)[nH]2)cc1	94.8
O=c1c2ccccc2[nH]c(=S)n1CCN1CCC(=C(c2ccc(F)cc2)c2ccc(F)cc2)CC1	96.8

For quick reference, copied from above (set 1):
refers to	species	route	dose	time	setting	plasma concentration [ng/mL]
methionine	human cancer patients		200 mg BID	2 h	mean, cycle 1 day 200	74500
S-adenosylmethionine	human cancer patients		50 mg QD	8 h	mean, cycle 1 day 50	25.7
methionine	human cancer patients	QD	dose not given	2 h	geometric mean, cycle 1 day 50	64400
S-adenosylmethionine	human cancer patients		200 mg BID	2 h	median, cycle 1 day 200	11.8
